# Experimental data from different studies.
# Protocols differ between the studies behind these lines. ± gives the spread as reported.
Compound,test,system,conditions,how to read,quantity,result
CNCCOC12CC3(C)CC(C)(CC(Cn4ncc(-c5ccc(N6CCc7cccc(C(=O)Nc8nc9ccccc9s8)c7C6)nc5C(=O)O)c4C)(C3)C1)C2,,"beagle dog, male, anaesthetised","intravenous bolus, 0.03 mg/kg, 75 min",relative to: baseline,mean arterial pressure change,0%
CCOC(=O)N1C[C@@H]([C@H]2CCOC2)N[C@@H](C(C)C)C1,"shake-flask, LC-HRMS",aqueous buffer,"16 h, pH 6.8",,solubility,> 750 µM
CCN1/C(=C/C(C)=O)Sc2ccc(F)cc21,,cynomolgus monkey,"oral, 30 mg/kg, 2 h post-dose",relative to: pre-dose,systolic blood pressure change,97.8 ± 3.1%
C=CC(=O)Nc1cc(Nc2nccc(-c3cn(C)c4ccccc34)n2)c(OC)cc1N(C)CCN(C)C,,human plasma,"72 h, storage stability, LLOQ sample",,recovery,50.1%
NC(=O)c1ccc(C(=O)Nc2cc(C3CC3)[nH]n2)cc1,,aqueous buffer,pH 7.4,,solubility,8.41 µg/mL
CNC(=O)c1ccc(-c2cnc3ncc(Cc4ccc5ncccc5c4)n3n2)cc1F,"measured: Asthenia, all grades",gastric cancer patients,"oral, 600 mg twice daily, expansion cohort, any causality",,patients with adverse event,0%
O=C(N[C@H](Cc1c[nH]c2ccccc12)C(=O)Nc1ccncc1)c1ccc(-c2cc(C(F)(F)F)ccc2F)cc1F,,"Swiss Webster mouse, female, intestine","oral, 50 mg/kg, 2 h, 20% Kolliphor vehicle",,concentration,152 µM
CCc1cc(C(=O)NC)c2nccc(N3CCc4c(cc(Cn5ccnc5)cc4-c4cn(C)nc4C(F)(F)F)C3=O)c2c1,measured: Mono,Sprague Dawley rat,"oral, 100 mg/kg once daily, 7 days",relative to: vehicle,change in clinical chemistry or haematology parameter,24.6%
CCc1cc2c(cc1N1CCC(N3CCOCC3)CC1)C(C)(C)c1[nH]c3cc(C#N)ccc3c1C2=O,,"ALK inhibitor-naive patients, body weight at least sample B kg","oral, 600 mg twice daily, week 6",,average plasma concentration,852 nM
